{"data": "Experimental data from different studies", "note": "Numbered parts are unrelated; each lists some results of a single study."}
{"data": "Sample 1", "target": "RING finger protein unkempt homolog, zinc fingers 1-6, GST-SBP tag (UNK, Homo sapiens, UniProt Q9C0B0, residues 30-357)", "technique": "RNA Bind-n-Seq", "molecule type": "RNA", "medium": "in vitro", "concentration": "not given", "notes": "RNA with constant flanks, ends assumed", "reference": "input RNA pool", "direction": "higher = stronger binding", "UniProt Q9C0B0, sequence (30-357, looked up)": "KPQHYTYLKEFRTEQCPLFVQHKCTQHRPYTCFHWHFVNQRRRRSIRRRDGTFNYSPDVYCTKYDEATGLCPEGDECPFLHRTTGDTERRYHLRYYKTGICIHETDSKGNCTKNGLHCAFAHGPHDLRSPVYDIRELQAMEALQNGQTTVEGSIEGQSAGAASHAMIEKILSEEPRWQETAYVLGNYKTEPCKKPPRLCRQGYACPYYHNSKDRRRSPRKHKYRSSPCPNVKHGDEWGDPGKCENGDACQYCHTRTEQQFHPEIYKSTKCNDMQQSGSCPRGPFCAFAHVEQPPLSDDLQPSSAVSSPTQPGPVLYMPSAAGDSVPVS"}
{"Oligonucleotide": "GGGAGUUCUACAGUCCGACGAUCUGUGGCUUUAACAUUUUCUGCAACUAUUUAUGAAGACUUCUGUUAUACAUGUAAUAAAUAUACCGAAAAAGCACAUACUUCGCAAGUGAGCUUUAUGGUUCUGUGUGUGUUGGGGGUGGGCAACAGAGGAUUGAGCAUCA", "bound/input enrichment [ratio]": 0.582}
{"Oligonucleotide": "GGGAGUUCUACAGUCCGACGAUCCAGAUAGCAUCAUUAAGAUCAGUUUUAAGGGGUAUAGGGAGGGUGAGGGAAGUGGGGGGUGUCCGGUAAGGGUUGGGGGUAGAGGUUUUGGGAUGUCUUAGUUAGAAACCAGAUUAAUAGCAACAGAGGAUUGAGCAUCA", "bound/input enrichment [ratio]": 12.8}
{"Oligonucleotide": "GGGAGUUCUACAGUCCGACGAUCGGUGGUGCUACACGAAUCCCUGCGGUAAAAGAGAAGAUCAGCAAAUUUUUCGGUAAAGAACUCCGUACAACAUUAAAUGCUGAUGAAGCUGUCACUCGAGGCUGUGCAUUGCAGUGUGCCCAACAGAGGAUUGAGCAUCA", "bound/input enrichment [ratio]": 0.705}
{"Oligonucleotide": "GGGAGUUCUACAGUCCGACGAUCAAAAAGCAGCUAAGGUUUUUACAAAGGGGAAAUGAGAACAAAAUGCUAGCUACAUCUGUACCGCUGAACUUUUAUAUGGUCCUCGCUGUCCUCUCUCUGCUCUGCUGUCCCCAGUGGUCACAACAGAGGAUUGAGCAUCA", "bound/input enrichment [ratio]": 0.182}
{"Oligonucleotide": "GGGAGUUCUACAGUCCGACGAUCCUUGGGGGCCUAAAGAGACCCCCGUCCUGCCUCCUUUCUUUCUCUGUCUCUUCCUUCCUUUCCGUCUUUUUCAUCCUCUUCUCUUUCCACCAACCCUCCUGCAUCCUUGCCUUGCAGCGUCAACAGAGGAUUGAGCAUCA", "bound/input enrichment [ratio]": 0.627}
{"Oligonucleotide": "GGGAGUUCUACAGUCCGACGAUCUACCUCAGUACCUCAGUAGGAUGCAAGGACUGUGCCUUCUUUGACUCAGCCAGUGCUUGCUACCGUCAGGCUACAAGCCAAGAGGUCCCCACAGAGUAUUAACAAUAAAUACUUCUGGCCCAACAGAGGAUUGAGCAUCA", "bound/input enrichment [ratio]": 0.0759}
{"data": "Sample 2", "target": "Histone acetyltransferase KAT6A, winged helix 2, GST fusion (KAT6A, Homo sapiens, UniProt Q92794, residues 85-181)", "technique": "protein binding microarray", "molecule type": "double-stranded DNA, one strand shown", "medium": "in vitro", "concentration": "not given", "notes": "8-mer, flanks averaged, mean of 2 arrays, mostly near background", "reference": "not given", "direction": "higher = stronger binding", "Target sequence (chain)": "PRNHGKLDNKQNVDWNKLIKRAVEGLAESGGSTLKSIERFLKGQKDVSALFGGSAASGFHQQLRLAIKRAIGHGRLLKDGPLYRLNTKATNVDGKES"}
{"Oligonucleotide": "CGCCAGAA", "E-score": 0.174}
{"Oligonucleotide": "CACGCCTG", "E-score": -0.0017}
{"Oligonucleotide": "CGCCCGCG", "E-score": 0.135}
{"Oligonucleotide": "CGCATTTC", "E-score": 0.168}
{"Oligonucleotide": "GGTCGCAC", "E-score": 0.191}
{"Oligonucleotide": "CGACCGGC", "E-score": 0.194}
{"Oligonucleotide": "AAATATAA", "E-score": 0.166}
{"data": "Sample 3", "target": "Fragile X messenger ribonucleoprotein 1, C-terminal low-complexity region (Fmr1, Mus musculus, UniProt P35922)", "technique": "RNA Bind-n-Seq", "molecule type": "RNA", "medium": "in vitro", "concentration": "200 nM", "notes": "whole 134-nt RNA, ends assumed", "together with": "150 mM KCl", "reference": "input library", "direction": "higher = stronger binding"}
{"Oligonucleotide": "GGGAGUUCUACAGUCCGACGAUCAAGUCCUGUGCUACACAUCGUAUGUACCGAAUCGGGUUUGGGAAAGGGAAAAAGGGAAAGUAUUAUGUUACGCCGUUCGGAUCUGCACUUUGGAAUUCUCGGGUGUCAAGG", "log2 enrichment": 0.471}
{"Oligonucleotide": "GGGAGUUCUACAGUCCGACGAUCAAGUCCUGUGCUACACAUCGUAUGUACCGAAUCGGUGGUUUUUUUGGUUUUUUUGGAAAGUAUUAUGUUACGCCGUUCGGAUCUGCACUUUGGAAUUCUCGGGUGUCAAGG", "log2 enrichment": -0.857}
{"Oligonucleotide": "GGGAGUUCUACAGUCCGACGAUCUUAUUCUGUGUGACACCUGCCCUCGUGCCUACCACCUCGUCUGCCUUGAUCCUGAGCUUGACCGGGCUCCAGAGGGCAAAUGGAGCUGCCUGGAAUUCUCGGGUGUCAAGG", "log2 enrichment": 0.707}
{"Oligonucleotide": "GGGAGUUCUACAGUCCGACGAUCUCAAGUCCUGUGCUACACAUCGUAUGUACCGAAUCGGGGCCGGGCCGGCCGGGGAAAGUAUUAUGUUACGCCGUUCGGAUCUGCACUUCCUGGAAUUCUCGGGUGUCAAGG", "log2 enrichment": -0.00457}
{"Oligonucleotide": "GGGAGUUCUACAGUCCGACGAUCACCAUGCAGGUGGGCAUCUUUGGGAAGUGGUGCAAGGGGGGGAUAGGGAGGGGGGUAACACUUUGGGAACAGGUGGUCCCAGGUCGUUUCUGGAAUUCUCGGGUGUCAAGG", "log2 enrichment": 0.927}
{"Oligonucleotide": "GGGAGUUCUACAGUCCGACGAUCUCCUGUGCUACACAUCGUAUGUACCGAAUCGGGUUUUUUGGUUUUUUGGGGUUUUUUGGAAAGUAUUAUGUUACGCCGUUCGGAUCUGCAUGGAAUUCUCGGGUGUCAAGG", "log2 enrichment": -0.0535}
{"Oligonucleotide": "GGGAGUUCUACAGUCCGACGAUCCCUGUGCUACACAUCGUAUGUACCGAAUCGGGGAAAAAGGGGUUUUUUUGGGGAAAGGGGAAAGUAUUAUGUUACGCCGUUCGGAUCUGCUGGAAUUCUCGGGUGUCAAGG", "log2 enrichment": 0.369}
{"Oligonucleotide": "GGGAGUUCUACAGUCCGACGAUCAGUCCUGUGCUACACAUCGUAUGUACCGAAUCGGGUUUUUGGGGUUUUUGGUUUUUGGAAAGUAUUAUGUUACGCCGUUCGGAUCUGCACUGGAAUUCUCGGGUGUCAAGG", "log2 enrichment": -0.192}
{"data": "Single results of other studies"}
{"Substance": "PhoQ, residues 284 288 289 292 302 303 SCEHLI", "target": "PhoP, residues 12 14 15 18 19 SQCLL (Escherichia coli, UniProt P23836)", "assay": "Sort-seq, refers to: YFP reporter", "system": "E. coli", "setting": "PhoQ-PhoP variant library, together with: 10 µM Mg2+", "scale": "reference: high Mg2+ state, higher = stronger signaling", "quantity": "fold induction", "value": 13.2}
